Measurements from different studies.
Every numbered part comes from another study and shows a few of its results, in no order. Values joined by “and” are separate records of one study, mostly repeats; a detail may differ.
UniProt P42336, sequence (whole entry, unmodified, looked up): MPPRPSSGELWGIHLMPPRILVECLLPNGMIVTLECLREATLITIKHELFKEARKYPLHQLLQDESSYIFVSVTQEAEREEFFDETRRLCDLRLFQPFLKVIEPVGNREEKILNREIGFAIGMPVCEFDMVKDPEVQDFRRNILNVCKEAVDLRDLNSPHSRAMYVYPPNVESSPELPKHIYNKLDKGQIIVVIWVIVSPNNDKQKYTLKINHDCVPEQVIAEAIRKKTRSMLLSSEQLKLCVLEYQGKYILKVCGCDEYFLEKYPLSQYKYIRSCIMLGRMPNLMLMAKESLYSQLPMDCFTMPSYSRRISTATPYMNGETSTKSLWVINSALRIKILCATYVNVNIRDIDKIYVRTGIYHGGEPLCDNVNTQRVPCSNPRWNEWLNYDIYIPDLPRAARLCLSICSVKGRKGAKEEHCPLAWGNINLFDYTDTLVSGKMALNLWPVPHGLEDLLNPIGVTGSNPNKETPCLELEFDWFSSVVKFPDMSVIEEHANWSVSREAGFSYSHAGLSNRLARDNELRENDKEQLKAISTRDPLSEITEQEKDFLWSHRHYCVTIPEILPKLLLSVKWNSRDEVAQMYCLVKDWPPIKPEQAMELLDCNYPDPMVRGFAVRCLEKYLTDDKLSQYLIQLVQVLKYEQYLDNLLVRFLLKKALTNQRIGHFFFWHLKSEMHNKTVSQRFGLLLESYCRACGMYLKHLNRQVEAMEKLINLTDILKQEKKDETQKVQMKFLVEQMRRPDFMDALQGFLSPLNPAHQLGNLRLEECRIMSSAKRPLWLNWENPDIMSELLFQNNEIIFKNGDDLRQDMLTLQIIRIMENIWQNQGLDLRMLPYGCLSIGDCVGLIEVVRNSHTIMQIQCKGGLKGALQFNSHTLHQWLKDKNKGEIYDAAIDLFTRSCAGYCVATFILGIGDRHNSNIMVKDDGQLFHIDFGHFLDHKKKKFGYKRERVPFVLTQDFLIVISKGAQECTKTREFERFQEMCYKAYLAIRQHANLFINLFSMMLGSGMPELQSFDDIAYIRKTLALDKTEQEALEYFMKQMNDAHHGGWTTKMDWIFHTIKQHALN
UniProt O95819, sequence (whole entry, looked up): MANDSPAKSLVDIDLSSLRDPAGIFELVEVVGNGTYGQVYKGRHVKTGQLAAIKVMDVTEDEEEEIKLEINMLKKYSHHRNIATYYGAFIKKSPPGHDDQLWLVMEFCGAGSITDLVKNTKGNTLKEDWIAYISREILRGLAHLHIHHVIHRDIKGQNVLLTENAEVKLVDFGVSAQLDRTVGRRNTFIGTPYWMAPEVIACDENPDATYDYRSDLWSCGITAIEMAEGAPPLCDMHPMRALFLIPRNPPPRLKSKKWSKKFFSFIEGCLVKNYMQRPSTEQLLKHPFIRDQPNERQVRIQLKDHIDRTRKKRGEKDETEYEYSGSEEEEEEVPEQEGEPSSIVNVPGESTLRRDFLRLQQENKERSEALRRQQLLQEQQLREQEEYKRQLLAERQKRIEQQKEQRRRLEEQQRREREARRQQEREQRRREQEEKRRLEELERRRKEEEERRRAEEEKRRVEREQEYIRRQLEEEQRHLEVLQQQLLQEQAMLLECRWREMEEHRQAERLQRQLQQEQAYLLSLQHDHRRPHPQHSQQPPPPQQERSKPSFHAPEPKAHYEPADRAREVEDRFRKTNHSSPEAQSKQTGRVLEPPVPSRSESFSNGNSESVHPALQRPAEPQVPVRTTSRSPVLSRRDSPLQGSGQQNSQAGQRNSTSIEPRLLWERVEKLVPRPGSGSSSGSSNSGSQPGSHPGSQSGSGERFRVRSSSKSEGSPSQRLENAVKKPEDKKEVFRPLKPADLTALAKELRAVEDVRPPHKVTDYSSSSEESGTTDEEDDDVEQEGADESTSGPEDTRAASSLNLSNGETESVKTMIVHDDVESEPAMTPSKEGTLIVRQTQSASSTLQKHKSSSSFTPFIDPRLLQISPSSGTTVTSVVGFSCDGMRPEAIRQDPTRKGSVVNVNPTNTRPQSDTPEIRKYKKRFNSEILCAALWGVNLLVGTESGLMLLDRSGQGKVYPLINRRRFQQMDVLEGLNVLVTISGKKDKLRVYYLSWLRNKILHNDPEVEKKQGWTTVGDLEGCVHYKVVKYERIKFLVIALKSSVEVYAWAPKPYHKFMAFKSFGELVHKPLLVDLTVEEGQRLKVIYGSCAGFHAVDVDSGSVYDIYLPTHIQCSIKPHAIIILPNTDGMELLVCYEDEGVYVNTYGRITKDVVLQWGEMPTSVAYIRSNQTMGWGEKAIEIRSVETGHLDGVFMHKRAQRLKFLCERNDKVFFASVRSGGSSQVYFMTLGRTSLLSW
UniProt Q13523, sequence (whole entry, looked up): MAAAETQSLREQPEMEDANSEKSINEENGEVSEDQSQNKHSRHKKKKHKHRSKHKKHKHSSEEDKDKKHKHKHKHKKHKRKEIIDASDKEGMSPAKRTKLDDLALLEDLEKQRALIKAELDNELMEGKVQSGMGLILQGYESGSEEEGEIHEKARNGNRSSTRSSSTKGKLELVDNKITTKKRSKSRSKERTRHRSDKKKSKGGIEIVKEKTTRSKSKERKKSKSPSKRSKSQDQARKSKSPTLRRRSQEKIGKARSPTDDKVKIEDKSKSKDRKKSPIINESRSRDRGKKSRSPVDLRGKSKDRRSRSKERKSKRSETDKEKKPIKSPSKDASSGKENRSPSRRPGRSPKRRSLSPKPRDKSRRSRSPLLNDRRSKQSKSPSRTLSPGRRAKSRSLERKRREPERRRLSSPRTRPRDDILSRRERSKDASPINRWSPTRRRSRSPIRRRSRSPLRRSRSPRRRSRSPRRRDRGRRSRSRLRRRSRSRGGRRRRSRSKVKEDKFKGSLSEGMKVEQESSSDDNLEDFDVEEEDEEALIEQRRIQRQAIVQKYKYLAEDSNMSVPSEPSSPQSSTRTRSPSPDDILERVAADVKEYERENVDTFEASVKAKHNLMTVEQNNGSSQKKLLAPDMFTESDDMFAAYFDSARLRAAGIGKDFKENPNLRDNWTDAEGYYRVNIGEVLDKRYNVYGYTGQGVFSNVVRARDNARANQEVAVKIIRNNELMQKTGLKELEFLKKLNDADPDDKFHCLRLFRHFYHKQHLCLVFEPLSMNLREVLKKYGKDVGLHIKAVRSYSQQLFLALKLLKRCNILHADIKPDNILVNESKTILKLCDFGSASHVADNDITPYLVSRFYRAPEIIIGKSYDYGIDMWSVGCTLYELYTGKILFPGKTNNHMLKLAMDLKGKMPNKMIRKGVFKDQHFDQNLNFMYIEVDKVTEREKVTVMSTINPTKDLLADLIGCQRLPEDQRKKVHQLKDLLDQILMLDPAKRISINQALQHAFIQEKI
UniProt P07949, sequence (whole entry, unmodified, looked up): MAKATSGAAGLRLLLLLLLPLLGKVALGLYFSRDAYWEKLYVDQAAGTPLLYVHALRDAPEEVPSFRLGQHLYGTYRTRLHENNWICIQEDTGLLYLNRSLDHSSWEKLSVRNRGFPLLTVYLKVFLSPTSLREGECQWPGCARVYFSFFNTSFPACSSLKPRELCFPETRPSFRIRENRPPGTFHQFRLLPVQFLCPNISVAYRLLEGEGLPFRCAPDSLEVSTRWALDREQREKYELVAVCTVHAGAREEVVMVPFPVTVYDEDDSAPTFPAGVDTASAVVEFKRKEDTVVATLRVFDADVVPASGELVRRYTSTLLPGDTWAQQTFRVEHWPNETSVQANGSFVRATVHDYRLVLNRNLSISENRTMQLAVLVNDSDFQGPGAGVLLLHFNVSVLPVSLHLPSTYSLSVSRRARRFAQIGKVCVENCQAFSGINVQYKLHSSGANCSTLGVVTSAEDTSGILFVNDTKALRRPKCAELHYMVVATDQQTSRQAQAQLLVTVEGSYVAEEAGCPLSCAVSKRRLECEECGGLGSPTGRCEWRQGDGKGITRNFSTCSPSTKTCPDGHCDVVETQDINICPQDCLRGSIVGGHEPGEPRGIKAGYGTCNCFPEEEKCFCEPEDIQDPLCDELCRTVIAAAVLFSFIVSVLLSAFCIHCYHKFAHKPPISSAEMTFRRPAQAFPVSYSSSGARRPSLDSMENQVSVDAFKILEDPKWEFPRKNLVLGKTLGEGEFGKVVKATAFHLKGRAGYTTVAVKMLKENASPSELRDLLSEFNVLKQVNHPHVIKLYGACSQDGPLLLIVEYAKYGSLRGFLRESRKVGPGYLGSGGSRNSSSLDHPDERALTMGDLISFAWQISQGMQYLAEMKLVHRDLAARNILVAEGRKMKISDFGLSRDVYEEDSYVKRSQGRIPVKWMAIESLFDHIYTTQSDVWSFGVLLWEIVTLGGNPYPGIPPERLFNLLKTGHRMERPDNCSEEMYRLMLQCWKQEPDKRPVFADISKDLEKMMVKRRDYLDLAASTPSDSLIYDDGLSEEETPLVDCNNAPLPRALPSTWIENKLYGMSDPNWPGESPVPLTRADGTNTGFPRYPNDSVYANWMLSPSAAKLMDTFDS

Block 1
Organism: Sarcocystis neurona
Effect on: parasite growth
Concentration: 10 µM
Compound	inhibition
CC(C)c1ccc2c(c1)c(SC(C)(C)C)c(CC(C)(C)C(=O)O)n2Cc1ccc(Cl)cc1	7.4%
O=C(O)CCCc1ccccc1	-22.3%
CO[C@H]1/C=C/O[C@@]2(C)Oc3c(C)c(O)c4c(O)c(c(/C=N/N5CCN(C6CCCC6)CC5)c(O)c4c3C2=O)NC(=O)/C(C)=C\C=C\[C@H](C)[C@H](O)[C@@H](C)[C@@H](O)[C@@H](C)[C@H](OC(C)=O)[C@@H]1C	-23.9%
Nc1cc(N2CCCCC2)nc(N)[n+]1[O-]	-27.7%
NC(=O)N1c2ccccc2CC(=O)c2ccccc21	58.9%
CCOc1cc(N)c(Cl)cc1C(=O)NCC1CN(Cc2ccc(F)cc2)CCO1 (stereo not drawn)	45.2%
N[C@@H](C(=O)N[C@@H]1C(=O)N2C(C(=O)O)=C(Cl)CS[C@H]12)c1ccccc1	-19.9%
CC(C)NCC(O)COc1cccc2ccccc12.Cl (stereo not drawn)	-23.3%
CC1=C(CC(=O)O)c2cc(F)ccc2/C1=C\c1ccc([S+](C)[O-])cc1 (stereo not drawn)	-32.2%
O=C(O[C@H]1[C@H](Oc2ccccc2COC(=O)C2(O)C=CCCC2=O)O[C@H](CO)[C@@H](O)[C@@H]1O)c1ccccc1 (stereo partly drawn)	-27.2%
O=C1Nc2ccc(Cl)cc2[C@@](C#CC2CC2)(C(F)(F)F)O1	19.7%

Block 2
Compound: Cc1nc(N2CC[C@@H](O)C2)ncc1-c1cc(C(F)(F)F)cc2[nH]ncc12
Technique: competition with immobilised ligand
Concentration: 1 µM
target	effect on	remaining binding [%]
PIK3CB (Homo sapiens, UniProt P42338)	cell-free assay	60
CSNK2A1 (Homo sapiens, UniProt P68400)	cell-free assay	85
MELK (Homo sapiens, UniProt Q14680)	binding	100
DCLK3 (Homo sapiens, UniProt Q9C098)	binding	96
BRAF (Homo sapiens, UniProt P15056, V600E)	cell-free assay	77
TEC (Homo sapiens, UniProt P42680)	binding	84
MAK (Homo sapiens, UniProt P20794)	binding	100
SYK (Homo sapiens, UniProt P43405)	cell-free assay	100
Tyrosine-protein kinase ABL1, non-phosphorylated (ABL1, Homo sapiens, UniProt P00519)	binding	83
STK32C (Homo sapiens, UniProt Q86UX6)	binding	86
IRAK3 (Homo sapiens, UniProt Q9Y616)	binding	85
FYN (Homo sapiens, UniProt P06241)	binding	100
GRK1 (Homo sapiens, UniProt Q15835)	binding	52
PIK3CA (Homo sapiens, UniProt P42336, E545K)	cell-free assay	56
RET (Homo sapiens, UniProt P07949, V804M)	cell-free assay	96
NEK6 (Homo sapiens, UniProt Q9HC98)	binding	89
PRPF4B (Homo sapiens, UniProt Q13523)	cell-free assay	100
NEK1 (Homo sapiens, UniProt Q96PY6)	binding	100
RIPK4 (Homo sapiens, UniProt P57078)	binding	60
SRPK1 (Homo sapiens, UniProt Q96SB4)	binding	100
PNCK (Homo sapiens, UniProt Q6P2M8)	cell-free assay	90
PTK2 (Homo sapiens, UniProt Q05397)	binding	86
PIK3CA (Homo sapiens, UniProt P42336, E545A)	cell-free assay	97
INSRR (Homo sapiens, UniProt P14616)	binding	87
PRKACB (Homo sapiens, UniProt P22694)	cell-free assay	79

Block 3
Compound: CC(C)S(=O)(=O)c1ccc2nccc(Nc3ccc4sc(C5CCCC5)nc4c3)c2c1.Cl
Effect on: kinase activity
Mode: inhibitor
Concentration: 1 µM
target	remaining activity
MAPK8 (Homo sapiens, UniProt P45983)	100%
ABL2 (Homo sapiens, UniProt P42684)	86%
IKBKB (Homo sapiens, UniProt O14920)	116%
MAP3K9 (Homo sapiens, UniProt P80192)	96%
Myosin-IIIb (MYO3B, Homo sapiens, UniProt Q8WXR4)	98%
MAP4K4 (Homo sapiens, UniProt O95819)	100% and 121%
PLK1 (Homo sapiens, UniProt P53350)	80%
STK24 (Homo sapiens, UniProt Q9Y6E0)	118%
WEE1 (Homo sapiens, UniProt P30291)	106%
AKT1 (Homo sapiens, UniProt P31749)	94%

Block 4
Target: Calcium/calmodulin-dependent protein kinase type II subunit alpha (CAMK2A, Homo sapiens, UniProt Q9UQM7)
UniProt Q9UQM7, sequence (whole entry, looked up): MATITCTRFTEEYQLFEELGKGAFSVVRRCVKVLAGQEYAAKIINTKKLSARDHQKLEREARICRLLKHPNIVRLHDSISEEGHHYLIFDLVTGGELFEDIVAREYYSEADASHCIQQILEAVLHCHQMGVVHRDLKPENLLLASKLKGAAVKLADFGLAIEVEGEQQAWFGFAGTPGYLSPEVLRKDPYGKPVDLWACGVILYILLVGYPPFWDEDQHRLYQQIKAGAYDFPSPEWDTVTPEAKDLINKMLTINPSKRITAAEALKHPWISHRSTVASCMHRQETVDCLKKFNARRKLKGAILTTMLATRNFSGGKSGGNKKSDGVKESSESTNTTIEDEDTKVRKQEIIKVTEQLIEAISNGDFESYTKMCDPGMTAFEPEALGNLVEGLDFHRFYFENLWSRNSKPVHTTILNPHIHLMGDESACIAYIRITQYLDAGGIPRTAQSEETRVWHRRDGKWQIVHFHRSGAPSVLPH
Effect on: enzyme activity
Mode: inhibitor
Concentration: 10 µM
Compound	inhibition [%]
CCCC[C@H](NC(C)=O)C(=O)N[C@H]1CC(=O)NCCCC[C@@H](C(=O)O)NC(=O)[C@H](Cc2c[nH]c3ccccc23)NC(=O)[C@H](CCCN=C(N)N)NC(=O)[C@@H](Cc2ccccc2)NC(=O)[C@H](Cc2cnc[nH]2)NC1=O	-9
Cc1cc2nc3c(=O)[nH]c(=O)nc-3n(C[C@H](O)[C@H](O)[C@H](O)COP(=O)(O)OP(=O)(O)OC[C@H]3O[C@@H](n4cnc5c(N)ncnc54)[C@H](O)[C@@H]3O)c2cc1C	-2
C[C@]12CC[C@H](O)CC1=CC[C@@H]1[C@@H]2CC[C@]2(C)C(c3cccnc3)=CC[C@@H]12	-8
CC(C)(S)[C@@H](N)C(=O)O	15
CCCCS(=O)(=O)N[C@@H](Cc1ccc(OCCCCC2CCNCC2)cc1)C(=O)O	-10
O=C1C[C@@H](c2ccccc2)Oc2cc(O[C@@H]3O[C@H](CO)[C@@H](O)[C@H](O)[C@H]3O)cc(O)c21	2
Clc1ccccc1C(c1ccccc1)(c1ccccc1)n1ccnc1	-13
CC(=O)Oc1ccccc1C(=O)Nc1ncc([N+](=O)[O-])s1	-15
COC(=O)c1c[nH]c2ccccc12	31
CC(C)=CCOc1ccc(/C=C/C(=O)c2ccc(OCC=C(C)C)cc2OCC(=O)O)cc1	1
NC(=O)C(c1ccccc1)(c1ccccc1)C1CCN(CCc2ccc3c(c2)CCO3)C1 (racemic)	13

Block 5
Target: Diamine acetyltransferase 1 (Homo sapiens, UniProt P21673)
Mode: inhibitor
Concentration: 10 µM
Baseline: control
Residues (P21673 1-171): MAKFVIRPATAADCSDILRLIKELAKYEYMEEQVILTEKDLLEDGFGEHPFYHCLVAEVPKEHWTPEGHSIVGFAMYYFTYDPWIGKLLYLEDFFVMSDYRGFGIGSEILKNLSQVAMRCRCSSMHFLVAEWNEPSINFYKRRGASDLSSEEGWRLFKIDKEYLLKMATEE
Compound	remaining activity
COc1ccc(-c2cc(=O)c3c(O)cc(O)c(-c4cc(-c5cc(=O)c6c(O)cc(OC)cc6o5)ccc4OC)c3o2)cc1	97%
O[C@H]1[C@H](O)[C@@H](O)[C@H](O)[C@@H](O)[C@H]1O	88.3%
O=C(/C=C/c1ccc(O[C@@H]2O[C@H](CO)[C@@H](O)[C@H](O)[C@H]2O[C@@H]2OC[C@](O)(CO)[C@H]2O)cc1)c1ccc(O)cc1O	81.6%

Repeated from above (block 4):
Compound	inhibition [%]
Cc1cc2nc3c(=O)[nH]c(=O)nc-3n(C[C@H](O)[C@H](O)[C@H](O)COP(=O)(O)OP(=O)(O)OC[C@H]3O[C@@H](n4cnc5c(N)ncnc54)[C@H](O)[C@@H]3O)c2cc1C	-2
CCCCS(=O)(=O)N[C@@H](Cc1ccc(OCCCCC2CCNCC2)cc1)C(=O)O	-10
O=C1C[C@@H](c2ccccc2)Oc2cc(O[C@@H]3O[C@H](CO)[C@@H](O)[C@H](O)[C@H]3O)cc(O)c21	2
Clc1ccccc1C(c1ccccc1)(c1ccccc1)n1ccnc1	-13
CC(C)=CCOc1ccc(/C=C/C(=O)c2ccc(OCC=C(C)C)cc2OCC(=O)O)cc1	1
CC(=O)Oc1ccccc1C(=O)Nc1ncc([N+](=O)[O-])s1	-15
COC(=O)c1c[nH]c2ccccc12	31
